Measured values pooled from the literature.
Protocols differ between the studies behind these lines. ± gives the spread as reported.

CC1=C(/C=C/C(C)=C/C=C/C(C)=C/C(=O)O)C(C)(C)CCC1
EC50 (786-0; cell growth or viability; 48 h): 23600 nM

CC=CC(=O)N(CC)c1ccccc1C (mixture of isomers)
EC50 (Kasumi 1; cell growth or viability, XTT): 12500 nM

CCCCC[C@H](O)/C=C/[C@H]1CCC(=O)[C@@H]1CCCCCCC(=O)O
EC50 (rat bone marrow cells; alkaline phosphatase activity, activator; 9 days): 95.8 ± 21.9 nM

human TGF-beta1
EC50 (Mv1Lu; reporter gene, item: SBE(CAGA)12 luciferase; concentration not given, 0.2% FBS): ~0.01 nM

C=C1CC[C@H](O)C/C1=C/C=C1\CCC[C@]2(C)[C@@H](C(=O)CO)CC[C@@H]12
EC50 (SK-MEL-188; cell growth or viability, MTT): 3.4 nM

c1ccc2c(c1)ccn2CCCCN1CCN(C2CCCCC2)CC1
EC50 (BxPC-3, AsPC-1, PANC-1, Panc02; cytotoxicity; 48 h): > 100000 nM

CNC(=O)COc1cc2cc(Nc3nc(N4CCC(C(=O)NCCCCCCCNC(=O)C[C@@H]5N=C(c6ccc(Cl)cc6)c6c(sc(C)c6C)-n6c(C)nnc65)CC4)ncc3Cl)cc(OC)c2n(C)c1=O
EC50 (DLBCL cell lines; cell viability, PrestoBlue; 72 h): 1 to 10 nM

CCOC(=O)c1ccc(NC2CCCCC2)c(N)c1
EC50 (HT-1080; protection from ferroptosis, PrestoBlue; 24 h, added: erastin 10 µM): 70 nM

CN(C)/N=N/c1[nH]cnc1C(N)=O
EC50 (Kasumi 1; cell growth or viability, XTT): 2900 nM

O=C(CC(O)(c1nc2ccccc2s1)C(F)(F)F)c1cccc(Br)c1 (stereo not drawn)
EC50 (SK-BR-3; cell growth or viability, MTT; 48 h): 11000 nM

CCC#CC[C@H](C)[C@H](O)/C=C/[C@H]1CC(F)(F)C(=O)N1CCCCCCC(=O)O
EC50 (rat bone marrow cells; alkaline phosphatase activity, activator; 9 days): 2.44 ± 0.45 nM

N=C(N)c1ccc(OCCCCCOc2ccc(C(=N)N)cc2)cc1
EC50 (WM-115, S100B shRNA; cell growth, SYBR Green; low S100B): 26000 ± 4000 nM

C[C@@H]1C[C@H]2[C@@H]3CCC4=CC(=O)C=C[C@]4(C)[C@@]3(F)[C@@H](O)C[C@]2(C)[C@@]1(O)C(=O)CO
EC50 (Kasumi 1; cell growth or viability, XTT): 24 nM

CC[C@H](C)[C@H](NC(=O)[C@H](CCC(=O)O)NC(=O)[C@H](CC(=O)O)NC(=O)CNC(=O)[C@H](CC(C)C)NC(=O)[C@H](CCCNC(=N)N)NC(=O)[C@H](CCCNC(=N)N)NC(=O)[C@H](CC(C)C)NC(=O)CNC(=O)[C@H](CCC(N)=O)NC(=O)[C@@H](NC(=O)[C@H](CCSC)NC(=O)[C@H](Cc1c[nH]c2ccccc12)NC(=O)[C@@H](NC(=O)[C@H](CCC(=O)O)NC(=O)[C@@H]1CCCN1C(=O)[C@H](CCCNC(=N)N)NC(C)=O)[C@@H](C)CC)[C@@H](C)O)C(=O)N[C@@H](CC(N)=O)C(=O)N[C@@H](C)C(=O)N[C@@H](Cc1ccc(O)cc1)C(=O)N[C@@H](Cc1ccc(O)cc1)C(=O)N[C@@H](C)C(=O)N[C@@H](CCCNC(=N)N)C(N)=O
EC50 (MDA-MB-231, permeabilized; mitochondrial depolarization, BH3 profiling, JC-1; 3 h): > 100000 nM

Cc1ccc(C(=O)OCC(=O)N=c2sccn2Cc2ccccc2Cl)s1
EC50 (SK-BR-3; cell growth or viability, MTT; 48 h): 10000 nM

O=C(CCCCCC(=O)NN=Cc1ccc(-c2ccccc2)cc1)NO
EC50 (mouse primary forebrain neurons; histone H4K12 acetylation; 24 h): 290 nM

C[C@]12C=CC(=O)C=C1CC[C@@H]1[C@@H]2[C@@H](O)C[C@@]2(C)[C@H]1CC[C@]2(O)C(=O)CO
EC50 (Kasumi 1; cell growth or viability, XTT): 110 nM

O=C(CCCCC[C@@H]1NC(=O)[C@H]2CCCN2C(=O)[C@H](Cc2ccccc2)NC(=O)[C@H](Cc2ccccc2)NC1=O)NO
EC50 (human iPSC-derived NPCs; inducer, ELISA, item: intracellular progranulin; 18 h): 450 ± 10 nM

CO[C@H]1/C=C\C=C(/C)C(=O)NC2=CC(=O)C(NCCN(C)C)=C(C[C@@H](C)C[C@H](OC)[C@H](O)[C@@H](C)/C=C(\C)[C@@H]1OC(N)=O)C2=O
EC50 (Kasumi 1; cell growth or viability, XTT): 48 nM

O=c1[nH]cc(F)c(=O)[nH]1
EC50 (SW-403; cell viability, trypan blue exclusion; single exposure): 1360 ± 60 nM

COc1cc2ncnc(Nc3ccc(F)c(Cl)c3)c2cc1NC(=O)/C=C/CN1CCCCC1
EC50 (Ba/F3 EGFR D770_N771insSVD; cell proliferation): 680 ± 160 nM

Repeated from above:
CO[C@H]1/C=C\C=C(/C)C(=O)NC2=CC(=O)C(NCCN(C)C)=C(C[C@@H](C)C[C@H](OC)[C@H](O)[C@@H](C)/C=C(\C)[C@@H]1OC(N)=O)C2=O
EC50 (Kasumi 1; cell growth or viability, XTT): 48 nM

O=c1[nH]cc(F)c(=O)[nH]1
EC50 (SW-403; cell viability, trypan blue exclusion; single exposure): 1360 ± 60 nM
